Results pooled from the literature.
Compare with care: the assays were run in different laboratories. ± gives the spread as reported. ≈ marks a conversion by molar mass, not a printed value.

Compound	assay	test system	conditions	scale	endpoint	value
CC[C@H](C)[C@H](NC(=O)[C@H](C)NC(=O)[C@H](CCCCN)NC(=O)[C@H](CC(C)C)NC(=O)[C@@H](N)Cc1ccccc1)C(=O)N[C@@H](CCCCN)C(=O)N[C@@H](CCCCN)C(=O)N[C@@H](Cc1ccccc1)C(=O)NCC(=O)N[C@@H](CCCCN)C(=O)N[C@@H](CCC(=O)O)C(=O)N[C@@H](Cc1ccccc1)C(=O)N[C@@H](CCCCN)C(=O)N[C@@H](CCCCN)C(=O)N[C@H](C(=O)NCC(=O)N[C@@H](C)C(=O)N[C@@H](CCCCN)C(=O)N[C@@H](CC(C)C)C(=O)N[C@@H](CCCCN)C(=O)O)[C@@H](C)CC		BALB/c mice		baseline: compound over colistin	LD50 ratio	5
CC1(C)C(=CC=CC=CC2=[N+](CCCCN=[N+]=[N-])c3ccc(S(=O)(=O)[O-])cc3C2(C)C)N(CCCCCC(=O)O)c2ccccc21		DMSO			molar absorption coefficient	218000 M⁻¹ cm⁻¹
CC1=CC=c2ccc3c4c2[N]1[Re](=[C]=O)(=[C]=O)(=[C]=O)([C]#[N+]c1cc(C)cc(C)c1)[N]4C(C)=CC=3.O=S(=O)([O-])C(F)(F)F	cyclic voltammetry	acetonitrile	irreversible reduction		cathodic peak potential	-1.27 V vs SCE
O=C(O)CC[C@H](NC(=O)O[C@@H](CCCCNC(=O)c1ccc([18F])cc1)C(=O)O)C(=O)O		mouse, PC-3 PIP/flu xenografts, blood	90 min		tissue uptake	0.2 ± 0.14 %ID/g
Cc1cc(Nc2nc(C[C@@]3(C(=O)O)CCN(Cc4cccc(Cl)c4F)[C@H](C)C3)cc(C)c2F)n[nH]1		Sprague-Dawley rat, plasma	intravenous, 0.5 mg/kg, single dose		Vd	0.278 L/kg
[CH3][Ti+2][O]C(=O)c1ccc([S][Au][PH](c2ccccc2)(c2ccccc2)c2ccccc2)cc1.c1cc[cH-]c1.c1cc[cH-]c1		DMSO/water	5 × 10 µM		pH	5.13
CCCCCCCCCCCCCC(=O)N[C@H](CCN)C(=O)N[C@@H]1C(=O)N[C@@H](CCN)C(=O)N[C@@H](CC(C)C)C(=O)N[C@@H](CCN)C(=O)N[C@H](Cc2ccccc2)C(=O)N[C@@H](CC(C)C)C(=O)N[C@@H](CCN)C(=O)N[C@H](CCN)C(=O)N[C@@H](C(C)C)C(=O)N[C@@H](CC(=O)O)C(=O)O[C@@H]1C		rat		baseline: subcutaneous over intravenous	half-life ratio	2.4 fold
Cc1cc(O)cc(C)c1CC(N)C(=O)NC1CCNc2ccc(CN3CCc4ccccc4C3)cc21 (centres unmarked)	chemical stability	mouse, plasma	30 min		compound remaining	100%
C=C1C(=O)OC2CC(C)C3C=CC(=O)C3(C)C(O[Si](C)(C)C)C12 (centres unmarked)	propidium iodide flow cytometry	primary splenocytes, BALB/c mouse	48 h, 10% fetal calf serum		CC50	0.12 ± 0.1 µg/mL (≈ 0.359 µM)
CN(C)C(CNC(=O)Nc1cc(C(F)(F)F)ccc1N1CCOCC1)c1ccncc1 (centres unmarked)		mouse, serum	intraperitoneal, 360 mg/kg single dose		serum direct bilirubin	0 mg/dL
CCNC(=O)c1noc(-c2cc(C(C)C)c(O)cc2O)c1NC(=O)CCN1CCOCC1		athymic nude mice, A2780/Dx xenograft	intraperitoneal, 200 mg/kg, every 4 days for 3 weeks		body weight loss	2%
NC(=O)N[C@H]1CC[C@H](CCN2CCN(c3cccc(Cl)c3Cl)CC2)CC1		rat	oral, 3 mg/kg cariprazine	baseline: cariprazine	plasma exposure	~4%
CSCC[C@H](NC(=O)CNC(=O)[C@H](CC(=O)O)NC(=O)[C@@H](NC(=O)[C@@H](NC(=O)[C@@H](NC(=O)CNC(=O)[C@H](CCC(N)=O)NC(=O)[C@H](CCSC)NC(=O)[C@H](CC(=O)O)NC(=O)[C@H](C)NC(=O)[C@H](C)NC(=O)[C@@H](NC(=O)[C@H](CO)NC(=O)[C@@H](N)CC(C)C)[C@@H](C)O)C(C)C)C(C)C)[C@@H](C)O)C(=O)N[C@@H](C)C(=O)N[C@@H](CO)C(=O)NCC(=O)N[C@@H](CC(C)C)C(=O)N[C@@H](CC(=O)O)C(=O)N[C@@H](CCCCN)C(=O)N[C@@H](CC(=O)O)C(=O)N[C@@H](Cc1ccc(O)cc1)C(=O)N[C@@H](CC(C)C)C(=O)N[C@@H](CCCCN)C(=O)N1CCC[C@H]1C(=O)N[C@@H](CC(=O)O)C(=O)N[C@@H](CC(=O)O)C(=O)O		patients, serum	intravenous infusion		Tmax	< 10 min
CNC(=O)C1CCN(c2ccccc2NC(=O)c2ccc(-c3cc(O)ccc3C)c(C)n2)CC1	metabolic stability	human, liver microsomes	2 µM		half-life	29 min
CC1(C)OB(c2ccc(COC(=O)N(Cc3cccc(CN4CCCCC4)c3)[c-]3cccc3)cc2)OC1(C)C.[Fe+2].c1cc[cH-]c1	cyclic and differential pulse voltammetry	acetonitrile	23 °C	baseline: ferrocene/ferrocenium	E1/2	-40 mV
CC(C)[C@H](NC(=O)CNC(=O)[C@H](CCC(N)=O)NC(=O)[C@H](C)N)C(=O)O		human	20 mg/kg, 3 days, thrice daily dosing		subjects given concomitant medication	0%

Compound	assay	test system	conditions	scale	endpoint	value
COc1ccc(NC(=O)Cn2c(=O)c3ccccc3n(CC(=O)Nc3cc([125I])c(OC)cc3OC)c2=O)cc1		rat, pancreas	intravenous, 30 min		tracer uptake	0.14 %ID/g
CC[C@H](C)C(=O)N1CCC(NC(=O)Nc2ccc(OC(F)(F)F)c(F)c2)CC1		healthy volunteers	oral, 24 mg single dose		subjects with headache TEAE	16.7%
CC[C@H](C)[C@H](NC(=O)[C@H](CC(=O)O)NC(=O)[C@H](CO)NC(=O)[C@H](CCC(N)=O)NC(=O)[C@H](C)NC(=O)[C@H](CC(=O)O)NC(=O)[C@H](CCC(=O)O)NC(=O)[C@H](Cc1c[nH]cn1)NC(=O)[C@H](Cc1ccc(O)cc1)NC(=O)[C@H](C)NC(=O)[C@H](CC(=O)O)NC(=O)[C@H](CCC(=O)O)NC(=O)[C@H](Cc1c[nH]cn1)NC(=O)[C@H](Cc1ccc(O)cc1)NC(=O)[C@H](C)NC(=O)[C@H](CC(=O)O)NC(=O)[C@H](CCC(=O)O)NC(=O)[C@H](Cc1c[nH]cn1)NC(=O)[C@H](Cc1ccc(O)cc1)NC(=O)[C@H](C)NC(=O)[C@H](CC(=O)O)NC(=O)[C@H](CCC(=O)O)NC(=O)[C@H](Cc1c[nH]cn1)NC(=O)[C@H](Cc1ccc(O)cc1)NC(=O)[C@H](C)NC(=O)[C@H](CC(=O)O)NC(=O)[C@H](CCC(=O)O)NC(=O)[C@H](Cc1c[nH]cn1)NC(=O)[C@@H](N)Cc1ccc(O)cc1)C(=O)N[C@H](C(=O)N[C@@H](C)C(=O)N[C@@H](Cc1c[nH]cn1)C(=O)N[C@@H](CC(C)C)C(=O)N[C@@H](CC(C)C)C(=O)O)C(C)C		mouse, SN model	dose not given		RDW	26.9 ± 4.5%
CC(C)[C@@H]1NC(=O)[C@H](Cc2ccccc2)NC(=O)[C@H](Cc2ccc(O)cc2)NC(=O)CCSSC[C@@H](C(=O)N2CCC[C@H]2C(=O)N[C@H](CCCNC(=N)N)C(=O)NCC(N)=O)NC(=O)[C@H](CCC(N)=O)NC1=O		Wistar rat, blood	intravenous, 1 µg/kg single dose, 72 h		fibrinogen	206 ± 56.7 mg/dL
N=C(N)NCc1ccc(C(=O)NCCCC[C@H](NC(=O)N[C@@H](CCC(=O)O)C(=O)O)C(=O)O)cc1[131I]		SCID mouse, PC-3 xenografts, bone	4 h		tissue uptake	0.17 ± 0.06 %ID/g
CC(CCC(=O)NCC(=O)O)C1CCC2C3C(O)CC4CC(OC5OC(C(=O)O)C(O)C(O)C5O)CCC4(C)C3CCC12C (centres unmarked)		human, SLCO1B1 c.521 C/C, plasma	fasting, geometric mean, sex-adjusted		plasma concentration	238 ng/mL
CC(=O)c1ncn2c(=O)n(C)nnc12		mouse CD-1 male, liver microsomes	50 µM, 2 h, pH 7.4	baseline: time zero	remaining compound	70 ± 1%
[2H]C([2H])([2H])C([2H])([2H])C([2H])([2H])OC(C(=O)OC1CCNCC1)(c1ccccc1)c1ccccc1		male human, plasma	oral, 10 mg, multiple doses		Tmax	240 min
CCNc1cc2[o+]c3cc(NCC)c(C)cc3c(-c3ccccc3C(=O)OCCOCC[18F])c2cc1C		rat, skin	60 min		tissue uptake	0.15 ± 0.04 %ID/g
CSCC[C@@H]1NC(=O)[C@@H]2CSSC[C@H](NC(=O)[C@H](CO)NC(=O)[C@H](C)N)C(=O)N[C@@H](CCCNC(=N)N)C(=O)N[C@@H]([C@@H](C)O)C(=O)N3CCC[C@H]3C(=O)N[C@@H](CCCCN)C(=O)N[C@@H](CC(=O)O)C(=O)N[C@H]3CSSC[C@H](NC(=O)[C@H](CCCCN)NC(=O)[C@H](CCCNC(=N)N)NC(=O)[C@H](CC(N)=O)NC1=O)C(=O)N[C@@H](CCCCN)C(=O)N[C@H]1CSSC[C@H](NC(=O)[C@@H]4CCCN4C(=O)[C@H](CC(=O)O)NC(=O)[C@H](C)NC3=O)C(=O)N[C@@H](C)C(=O)N[C@@H](CCCCN)C(=O)N[C@@H](CCC(=O)O)C(=O)N[C@@H]([C@@H](C)O)C(=O)NCC(=O)N[C@@H](CSSC[C@@H](C(N)=O)NC(=O)[C@H](CCCNC(=N)N)NC(=O)[C@H](CC(N)=O)NC1=O)C(=O)N1CCC[C@H]1C(=O)N[C@@H](Cc1ccc(O)cc1)C(=O)NCC(=O)N[C@@H](CCCCN)C(=O)N2		DA rat pristane-induced arthritis, serum	subcutaneous, 0.1 mg/kg every other day, 21 days		Calcium	8.96 mg/dL
C/C=C/C=C/C/C=C/CCCCCCCc1cccc(O)c1O		female Kunming mice tumour-bearing, kidneys	intravenous, 10 mg/kg, 4 h		tissue concentration	7230 ± 1620 ng/g
C[C@]12CC[C@H](OCC[18F])C[C@H]1CC[C@@H]1[C@@H]2CC[C@]2(C)[C@@H](c3ccc(=O)oc3)CC[C@]12O	micro-PET	BALB/c nude mice, SMMC-7721 xenograft, liver	intravenous, 7.4 MBq, 5 min		peak tissue uptake	30.1 ± 3.05 %ID/g
CCN(CCCCOc1ccc(CCC(=O)N2CCC(Cc3ccccc3)CC2)cc1OC)Cc1ccccc1		Kunming mice	oral gavage, 1500 mg/kg daily, 14 days		body weight, mental state, movement	no effect
COc1ccc(C)cc1NC(=O)OC1CC2CCCC(C1)N2Cc1ccc(CC[18F])cc1 (centres unmarked)		BALB/c mice, EMT6 tumour	5 min	baseline: tumour over lung	tumour to tissue ratio	0.01
CC[C@H](C)[C@@H]1NC(=O)[C@H](CCCCN)NC(=O)[C@H](CCCCN)NC(=O)[C@H](Cc2ccc(O)cc2)NC(=O)[C@H](CC(C)C)NC(=O)[C@@H]2CCCN2C(=O)[C@H](C)NC(=O)CNC(=O)CNC(=O)[C@H](CO)NC(=O)CNC(=O)CNC(=O)[C@H](CO)NC(=O)[C@H](CCC(=O)O)NC(=O)[C@H](CC(C)C)NC(=O)[C@H](CC(C)C)NC(=O)[C@H](CCCCN)NC(=O)[C@H](CCCCN)NC(=O)[C@H]([C@@H](C)CC)NC(=O)[C@H]([C@@H](C)CC)NC(=O)[C@H](CCCCN)NC(=O)[C@H](CCCCN)NC(=O)[C@H](Cc2ccc(O)cc2)NC(=O)[C@H](CC(C)C)NC(=O)[C@@H]2CCCN2C(=O)[C@H](C)NC(=O)CNC(=O)[C@@H]2CSSC[C@H](NC(=O)[C@H](CC(C)C)NC(=O)[C@H](CCCCN)NC(=O)[C@H](CCCCN)NC(=O)[C@H]([C@@H](C)CC)NC1=O)C(=O)N[C@@H](CCC(=O)O)C(=O)N[C@@H](CC(N)=O)C(=O)NCC(=O)N2	hemolysis	uninfected human erythrocytes	1 h		HC10	> 128 µM
C[C@@H]1CC[C@H]2[C@@H](C)CO[C@@H]3O[C@@]4(C)CC[C@@H]1[C@]32OO4	LC-MS/MS	Sprague-Dawley rat, male, plasma	intravenous, 5 mg/kg		half-life	27.1 ± 3.17 min

A few entries again:
Compound	assay	test system	conditions	scale	endpoint	value
CC[C@H](C)[C@H](NC(=O)[C@H](C)NC(=O)[C@H](CCCCN)NC(=O)[C@H](CC(C)C)NC(=O)[C@@H](N)Cc1ccccc1)C(=O)N[C@@H](CCCCN)C(=O)N[C@@H](CCCCN)C(=O)N[C@@H](Cc1ccccc1)C(=O)NCC(=O)N[C@@H](CCCCN)C(=O)N[C@@H](CCC(=O)O)C(=O)N[C@@H](Cc1ccccc1)C(=O)N[C@@H](CCCCN)C(=O)N[C@@H](CCCCN)C(=O)N[C@H](C(=O)NCC(=O)N[C@@H](C)C(=O)N[C@@H](CCCCN)C(=O)N[C@@H](CC(C)C)C(=O)N[C@@H](CCCCN)C(=O)O)[C@@H](C)CC		BALB/c mice		baseline: compound over colistin	LD50 ratio	5
C=C1C(=O)OC2CC(C)C3C=CC(=O)C3(C)C(O[Si](C)(C)C)C12 (centres unmarked)	propidium iodide flow cytometry	primary splenocytes, BALB/c mouse	48 h, 10% fetal calf serum		CC50	0.12 ± 0.1 µg/mL (≈ 0.359 µM)
